# Experimental data gathered from unrelated publications.
# Compare with care: the assays were run in different laboratories. Numbers after ± are the reported error.
# PLEKHA5 PH domain: Pleckstrin homology domain-containing family A member 5, PH domain (PLEKHA5, Homo sapiens, UniProt Q9HAU0)
# UniProt Q9HAU0, sequence (whole entry, looked up): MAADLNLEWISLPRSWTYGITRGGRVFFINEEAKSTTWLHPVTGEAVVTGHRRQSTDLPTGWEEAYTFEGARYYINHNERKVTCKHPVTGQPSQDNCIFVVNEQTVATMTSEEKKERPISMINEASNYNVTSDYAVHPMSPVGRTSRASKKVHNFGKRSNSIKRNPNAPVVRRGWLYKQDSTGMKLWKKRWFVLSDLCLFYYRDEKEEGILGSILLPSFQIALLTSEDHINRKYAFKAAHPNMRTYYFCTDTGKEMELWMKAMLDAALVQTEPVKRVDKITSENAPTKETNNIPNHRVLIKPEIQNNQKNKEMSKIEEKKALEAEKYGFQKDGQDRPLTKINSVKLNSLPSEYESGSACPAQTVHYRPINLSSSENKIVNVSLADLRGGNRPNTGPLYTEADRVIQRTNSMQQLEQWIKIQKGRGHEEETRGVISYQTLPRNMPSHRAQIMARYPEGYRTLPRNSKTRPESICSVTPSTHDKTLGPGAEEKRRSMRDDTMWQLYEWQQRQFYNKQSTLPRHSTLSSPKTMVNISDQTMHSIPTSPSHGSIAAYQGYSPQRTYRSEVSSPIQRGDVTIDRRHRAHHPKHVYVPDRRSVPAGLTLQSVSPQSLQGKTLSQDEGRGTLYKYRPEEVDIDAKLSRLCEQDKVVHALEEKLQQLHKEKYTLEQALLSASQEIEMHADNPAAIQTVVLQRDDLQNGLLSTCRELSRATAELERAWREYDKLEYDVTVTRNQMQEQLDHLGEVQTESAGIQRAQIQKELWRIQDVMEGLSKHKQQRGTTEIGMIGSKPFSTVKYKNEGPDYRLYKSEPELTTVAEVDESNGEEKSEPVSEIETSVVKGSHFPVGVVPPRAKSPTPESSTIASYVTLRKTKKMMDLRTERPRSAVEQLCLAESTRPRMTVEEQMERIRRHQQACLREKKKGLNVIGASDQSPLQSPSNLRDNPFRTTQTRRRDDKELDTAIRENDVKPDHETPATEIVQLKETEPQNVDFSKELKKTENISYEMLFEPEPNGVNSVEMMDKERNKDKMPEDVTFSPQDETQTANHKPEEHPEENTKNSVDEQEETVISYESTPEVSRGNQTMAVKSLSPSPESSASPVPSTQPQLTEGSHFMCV
# USP49 ZnF-UBD domain: Ubiquitin carboxyl-terminal hydrolase 49, ZnF-UBD domain (USP49, Homo sapiens, UniProt Q70CQ1)
# UniProt Q70CQ1, sequence (whole entry, looked up): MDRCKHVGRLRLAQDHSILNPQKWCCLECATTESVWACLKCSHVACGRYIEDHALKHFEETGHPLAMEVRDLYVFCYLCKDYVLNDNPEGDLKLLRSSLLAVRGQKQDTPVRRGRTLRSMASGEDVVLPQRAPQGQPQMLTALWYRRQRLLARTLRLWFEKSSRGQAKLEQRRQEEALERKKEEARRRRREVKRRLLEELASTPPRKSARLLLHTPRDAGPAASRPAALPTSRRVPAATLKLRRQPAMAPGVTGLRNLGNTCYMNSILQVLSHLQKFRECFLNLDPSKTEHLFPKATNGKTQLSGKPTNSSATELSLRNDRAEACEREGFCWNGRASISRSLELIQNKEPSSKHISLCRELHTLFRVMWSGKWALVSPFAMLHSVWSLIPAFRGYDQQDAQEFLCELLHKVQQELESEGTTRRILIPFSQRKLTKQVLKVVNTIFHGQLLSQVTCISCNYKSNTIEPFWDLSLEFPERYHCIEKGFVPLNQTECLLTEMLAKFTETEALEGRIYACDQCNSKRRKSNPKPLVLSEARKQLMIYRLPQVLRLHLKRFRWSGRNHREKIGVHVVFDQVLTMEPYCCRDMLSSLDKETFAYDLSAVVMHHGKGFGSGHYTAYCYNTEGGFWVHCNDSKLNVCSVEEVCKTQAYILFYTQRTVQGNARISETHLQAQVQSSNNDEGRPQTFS
# Alpha-carbonic anhydrase: Alpha-carbonic anhydrase (Enterococcus faecium, UniProt Q3XYE8)
# ZBTB11/CRBN: ZBTB11/CRBN (Homo sapiens, UniProt O95625+Q96SW2)
# UniProt Q96SW2, sequence (whole entry, looked up): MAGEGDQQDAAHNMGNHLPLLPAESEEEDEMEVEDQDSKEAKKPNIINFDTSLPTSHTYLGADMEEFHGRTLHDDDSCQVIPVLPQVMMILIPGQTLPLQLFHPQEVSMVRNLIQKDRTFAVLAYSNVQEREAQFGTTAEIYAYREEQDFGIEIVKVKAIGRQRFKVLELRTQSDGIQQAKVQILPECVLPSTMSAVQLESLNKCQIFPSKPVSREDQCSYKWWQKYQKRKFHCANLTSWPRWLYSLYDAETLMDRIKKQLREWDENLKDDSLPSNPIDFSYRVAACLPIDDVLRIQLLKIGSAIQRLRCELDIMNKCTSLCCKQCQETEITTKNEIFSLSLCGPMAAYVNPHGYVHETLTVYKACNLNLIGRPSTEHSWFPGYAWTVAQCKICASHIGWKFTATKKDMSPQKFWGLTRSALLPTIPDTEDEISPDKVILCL
# UniProt O95625, sequence (whole entry, looked up): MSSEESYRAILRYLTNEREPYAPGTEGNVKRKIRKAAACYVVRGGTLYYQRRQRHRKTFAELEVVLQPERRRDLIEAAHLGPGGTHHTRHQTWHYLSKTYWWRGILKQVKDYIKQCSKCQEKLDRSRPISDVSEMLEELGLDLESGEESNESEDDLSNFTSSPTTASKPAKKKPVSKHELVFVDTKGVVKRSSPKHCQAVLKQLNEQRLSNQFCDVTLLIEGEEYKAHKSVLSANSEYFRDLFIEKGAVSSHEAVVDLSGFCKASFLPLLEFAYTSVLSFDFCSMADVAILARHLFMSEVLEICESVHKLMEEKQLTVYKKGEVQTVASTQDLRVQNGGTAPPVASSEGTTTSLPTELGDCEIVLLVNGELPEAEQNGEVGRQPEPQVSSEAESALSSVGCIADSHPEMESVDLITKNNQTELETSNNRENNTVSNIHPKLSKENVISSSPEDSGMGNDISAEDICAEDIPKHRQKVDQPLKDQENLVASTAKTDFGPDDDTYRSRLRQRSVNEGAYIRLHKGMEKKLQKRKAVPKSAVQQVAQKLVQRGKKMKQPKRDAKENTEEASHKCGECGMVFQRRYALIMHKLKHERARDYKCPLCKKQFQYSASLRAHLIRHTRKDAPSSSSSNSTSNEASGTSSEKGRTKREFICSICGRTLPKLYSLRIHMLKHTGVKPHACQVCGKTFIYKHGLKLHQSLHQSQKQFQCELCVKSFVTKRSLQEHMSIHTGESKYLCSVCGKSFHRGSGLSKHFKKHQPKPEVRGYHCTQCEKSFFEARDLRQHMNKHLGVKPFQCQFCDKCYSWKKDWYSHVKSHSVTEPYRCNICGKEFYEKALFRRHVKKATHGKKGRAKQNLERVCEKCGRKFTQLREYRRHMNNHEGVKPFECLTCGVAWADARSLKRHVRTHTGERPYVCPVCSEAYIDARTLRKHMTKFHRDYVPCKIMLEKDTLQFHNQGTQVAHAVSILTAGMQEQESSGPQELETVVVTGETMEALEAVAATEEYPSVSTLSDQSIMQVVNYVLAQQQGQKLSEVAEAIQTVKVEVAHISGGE
# USP20 ZnF-UBD domain: Ubiquitin carboxyl-terminal hydrolase 20, ZnF-UBD domain (USP20, Homo sapiens, UniProt Q9Y2K6)
# UniProt Q9Y2K6, sequence (whole entry, looked up): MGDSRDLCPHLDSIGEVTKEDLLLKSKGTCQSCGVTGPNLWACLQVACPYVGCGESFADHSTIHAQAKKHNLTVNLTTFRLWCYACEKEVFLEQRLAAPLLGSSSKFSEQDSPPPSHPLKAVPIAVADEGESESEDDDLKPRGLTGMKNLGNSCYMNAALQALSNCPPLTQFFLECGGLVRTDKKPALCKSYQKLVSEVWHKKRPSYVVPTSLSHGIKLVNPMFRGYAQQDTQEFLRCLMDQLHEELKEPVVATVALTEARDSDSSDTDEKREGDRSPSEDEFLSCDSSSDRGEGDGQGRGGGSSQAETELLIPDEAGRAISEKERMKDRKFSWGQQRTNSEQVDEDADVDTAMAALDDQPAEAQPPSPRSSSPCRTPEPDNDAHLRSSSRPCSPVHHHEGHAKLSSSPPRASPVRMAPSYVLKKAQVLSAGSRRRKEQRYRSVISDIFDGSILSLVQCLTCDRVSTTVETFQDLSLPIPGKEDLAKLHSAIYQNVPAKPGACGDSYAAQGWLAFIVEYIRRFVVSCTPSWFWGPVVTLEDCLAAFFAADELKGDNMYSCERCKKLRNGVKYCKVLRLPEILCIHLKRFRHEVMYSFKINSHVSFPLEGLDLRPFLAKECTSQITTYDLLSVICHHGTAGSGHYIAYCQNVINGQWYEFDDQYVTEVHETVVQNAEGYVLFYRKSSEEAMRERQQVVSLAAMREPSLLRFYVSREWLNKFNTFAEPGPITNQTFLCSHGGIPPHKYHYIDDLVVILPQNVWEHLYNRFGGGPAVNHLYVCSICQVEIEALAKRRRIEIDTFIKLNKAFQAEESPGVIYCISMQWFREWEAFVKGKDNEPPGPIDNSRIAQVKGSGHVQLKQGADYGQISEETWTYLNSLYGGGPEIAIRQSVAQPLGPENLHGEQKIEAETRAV
# UniProt P49840, sequence (whole entry, looked up): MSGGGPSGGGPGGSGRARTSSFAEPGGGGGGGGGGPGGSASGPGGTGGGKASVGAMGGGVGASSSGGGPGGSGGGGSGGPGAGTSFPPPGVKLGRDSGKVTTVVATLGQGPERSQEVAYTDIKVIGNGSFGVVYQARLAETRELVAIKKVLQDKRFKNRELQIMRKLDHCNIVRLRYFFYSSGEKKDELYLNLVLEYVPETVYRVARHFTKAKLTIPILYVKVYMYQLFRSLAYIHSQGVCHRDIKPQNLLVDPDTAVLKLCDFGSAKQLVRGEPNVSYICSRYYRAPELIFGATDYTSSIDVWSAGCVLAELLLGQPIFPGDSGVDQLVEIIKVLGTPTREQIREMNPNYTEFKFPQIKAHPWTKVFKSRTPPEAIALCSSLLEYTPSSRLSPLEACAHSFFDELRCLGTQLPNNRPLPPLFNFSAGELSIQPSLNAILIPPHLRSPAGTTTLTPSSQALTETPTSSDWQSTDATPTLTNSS
Structure (SMILES),target,assay,system,setting,how to read,quantity,value
CCn1c(-c2nc3cc(C(=O)N4CCC[C@@H](N)C4)cc(OC)c3n2C)cc2cccnc21,"HTR1B (Homo sapiens, UniProt P28222)","agonist, GTPγS binding",,,,EC50,2 µM
COc1cc2c(cc1OC)C1CC(=O)C(CC(C)C)CN1CC2 (stereo not drawn),"SLC18A2 (Homo sapiens, UniProt Q05940, I308V)","FFN206 uptake, inhibitor, fluorescence imaging",,"I308V mutant, added: FFN206 5 µM",,IC50,0.0429 µM
CCOc1ccc(C(=O)CC(SCc2ccc(Br)cc2)C(=O)O)cc1 (stereo not drawn),PLEKHA5 PH domain,"PLEKHA5 PI(4,5)P2 binding, fluorescence polarization",,"added: BODIPY-PI(4,5)P2 tracer",,Ki,47.9 ± 7.8 µM
COc1cc2oc(=O)cc(C)c2cc1CCC(=O)O,USP49 ZnF-UBD domain,,,,,Kd,86.2 µM
NS(=O)(=O)c1nnc(NC(=O)C2CCC3(CCCC3)CC2)s1,Alpha-carbonic anhydrase,"CO2 hydration, inhibitor, stopped-flow kinetics",,,,Ki,0.043 µM
Cc1ncsc1-c1ccc(CNC(=O)[C@@H]2C[C@@H](O)CN2C(=O)[C@@H](NC(=O)CCCCCCCCCCCC(=O)NCCCCC#Cc2cccc(-c3nn(-c4nc(C(=O)O)cs4)c(CC4CC4)c3Cc3ccc(S(N)(=O)=O)cc3)c2)C(C)(C)C)cc1,"LDHA (Homo sapiens, UniProt P00338)","degrader, western blot",PANC-1,48 h,,DC50,0.038 ± 0.0005 µM
CSc1nc(C)c(CCC(=O)O)c(=O)[nH]1,USP49 ZnF-UBD domain,,,,,Kd,> 1000 µM
CCC(C)(NCCc1ccc(C(F)(F)F)cc1)c1cccc(NC2=CC(=O)N(C3CCC(=O)NC3=O)C2=O)c1 (stereo not drawn),ZBTB11/CRBN,degrader,human cells,,,DC50,0.4 ± 0.37 µM
O=C(O)Cn1cc2ccccc2n1,USP49 ZnF-UBD domain,,,,,Kd,> 1000 µM
COc1cc(Cl)c(S(=O)(=O)N2CCCC(C)C2)cc1Cl (stereo not drawn),"Melanopsin (OPN4, Homo sapiens, UniProt Q9UHM6)","calcium release, antagonist",CHO cells expressing OPN4,,,Kb,0.0016 µM
O=C(O)CCc1nc2ncccn2n1,USP49 ZnF-UBD domain,,,,,Kd,> 1000 µM
CN1CCN(c2ccc(Nc3ncc4cc(C#N)c(=O)n(C5CCCC5)c4n3)cc2)CC1,"YES1 (Homo sapiens, UniProt P07947)",,,,,IC50,0.063 µM
CCC(C)(NCCc1ccc(C(F)(F)F)cc1C(F)(F)F)c1cccc(NC2=CC(=O)N(C3CCC(=O)NC3=O)C2=O)c1 (stereo not drawn),ZBTB11/CRBN,"degrader, HiBiT luminescence, refers to: endogenous HiBiT-tagged protein",,,,DC50,9.7 ± 4.8 µM
COc1ccc(C[C@H](N)C(=O)N[C@H]2[C@@H](O)[C@H](n3cnc4c(N(C)C)ncnc43)O[C@@H]2CO)cc1,"Nuclear receptor subfamily 5 group A member 2, ligand-binding domain (NR5A2, Homo sapiens, UniProt O00482)","corepressor binding, fluorescence polarization",,"concentration not given, ligand-binding domain, added: DAX1 peptide",reference: DMSO,coregulator peptide Kd change,no effect
NS(=O)(=O)c1nnc(NC(=O)CCC2CCCCO2)s1 (stereo not drawn),Alpha-carbonic anhydrase,"CO2 hydration, inhibitor, stopped-flow kinetics",,,,Ki,0.0339 µM
CC[C@@H]1[C@H](F)C(=O)N[C@@H]1COc1nccc2cc(C(N)=O)c(OC)cc12,"GSK3A (Homo sapiens, UniProt P49840)","ATP-site probe binding, ActivX profiling",THP-1 cell lysate,Lys2 site,,IC50,> 5 µM
CCC(C)(NCCc1ccc(C(F)(F)F)cc1Cl)c1cccc(NC2=CC(=O)N(C3CCC(=O)NC3=O)C2=O)c1 (stereo not drawn),ZBTB11/CRBN,degrader,human cells,,,DC50,3.7 ± 1.3 µM
Cc1sc2ncn(CC(=O)O)c(=O)c2c1C,USP20 ZnF-UBD domain,,,,,Kd,674 µM
NS(=O)(=O)c1nnc(NC(=O)CN2CCC(F)(F)CC2)s1,Alpha-carbonic anhydrase,"CO2 hydration, inhibitor, stopped-flow kinetics",,,,Ki,0.0198 µM
O=C(O)CCn1cnc2ccccc21,USP20 ZnF-UBD domain,,,,,Kd,> 1000 µM
CCC(C)(NCCc1ccc(OC)c(Cl)c1)c1cccc(NC2=CC(=O)N(C3CCC(=O)NC3=O)C2=O)c1 (stereo not drawn),ZBTB11/CRBN,"degrader, HiBiT luminescence, refers to: endogenous HiBiT-tagged protein",,,,DC50,27 µM
Cc1cccc(C(=O)Nc2nnc(S(N)(=O)=O)s2)c1,Alpha-carbonic anhydrase,"CO2 hydration, inhibitor, stopped-flow kinetics",,,,Ki,0.0281 µM
Nc1nc(CC(=O)O)cs1,USP20 ZnF-UBD domain,,,,,Kd,895 µM
CC(C)(NCCCc1ccc(C(F)(F)F)c(Cl)c1)c1cccc(NC2=CC(=O)N(C3CCC(=O)NC3=O)C2=O)c1 (stereo not drawn),ZBTB11/CRBN,degrader,human cells,,,DC50,0.42 µM
NCCC(=O)Nc1nnc(S(N)(=O)=O)s1,Alpha-carbonic anhydrase,"CO2 hydration, inhibitor, stopped-flow kinetics",,,,Ki,0.0567 µM
O=C(O)c1cccnc1Nc1cccc(C(F)(F)F)c1,"BK channel alpha subunit (Cavia porcellus, UniProt A0A286XP95)","delayed rectifier K+ current, activator","dispersed vascular smooth muscle cells, guinea pig, SMA arteriole",at +40 mV,,EC50,371 µM
O=C1CCC(N2C(=O)C=C(Nc3cccc(C4(NCCc5ccc(C(F)(F)F)c(Cl)c5)CCC4)c3)C2=O)C(=O)N1 (stereo not drawn),ZBTB11/CRBN,"degrader, HiBiT",MOLT-4,5 h,,DC50,0.22 ± 0.19 µM
NS(=O)(=O)c1nnc(NC(=O)CCc2ccc(F)cc2)s1,Alpha-carbonic anhydrase,"CO2 hydration, inhibitor, stopped-flow kinetics",,,,Ki,0.0312 µM
O=C(O)CCOc1ccccc1,"Ubiquitin carboxyl-terminal hydrolase 39, ZnF-UBD domain (Homo sapiens, UniProt Q53GS9)",,,,,Kd,> 1000 µM
CC1CCCC(C(=O)Nc2nnc(S(N)(=O)=O)s2)C1 (stereo not drawn),Alpha-carbonic anhydrase,"CO2 hydration, inhibitor, stopped-flow kinetics",,,,Ki,0.0458 µM
COc1cccc(C(=O)CC(SCc2ccc(Cl)cc2)C(=O)O)c1 (stereo not drawn),PLEKHA5 PH domain,"PLEKHA5 PI(4,5)P2 binding, fluorescence polarization",,"added: BODIPY-PI(4,5)P2 tracer",,Ki,29.6 ± 3.3 µM
CCC(C)(NCCc1ccc(OC)cc1)c1cccc(NC2=CC(=O)N(C3CCC(=O)NC3=O)C2=O)c1 (stereo not drawn),ZBTB11/CRBN,"degrader, HiBiT luminescence, refers to: endogenous HiBiT-tagged protein",,,,DC50,28 µM
NS(=O)(=O)c1nnc(NC(=O)CN2CCCC(F)(F)C2)s1,Alpha-carbonic anhydrase,"CO2 hydration, inhibitor, stopped-flow kinetics",,,,Ki,0.0297 µM

# Some of these lines once more:
Structure (SMILES),target,assay,system,setting,how to read,quantity,value
CSc1nc(C)c(CCC(=O)O)c(=O)[nH]1,USP49 ZnF-UBD domain,,,,,Kd,> 1000 µM
O=C(O)CCn1cnc2ccccc21,USP20 ZnF-UBD domain,,,,,Kd,> 1000 µM
CC(C)(NCCCc1ccc(C(F)(F)F)c(Cl)c1)c1cccc(NC2=CC(=O)N(C3CCC(=O)NC3=O)C2=O)c1 (stereo not drawn),ZBTB11/CRBN,degrader,human cells,,,DC50,0.42 µM
CCC(C)(NCCc1ccc(C(F)(F)F)cc1C(F)(F)F)c1cccc(NC2=CC(=O)N(C3CCC(=O)NC3=O)C2=O)c1 (stereo not drawn),ZBTB11/CRBN,"degrader, HiBiT luminescence, refers to: endogenous HiBiT-tagged protein",,,,DC50,9.7 ± 4.8 µM
O=C(O)Cn1cc2ccccc2n1,USP49 ZnF-UBD domain,,,,,Kd,> 1000 µM
Cc1sc2ncn(CC(=O)O)c(=O)c2c1C,USP20 ZnF-UBD domain,,,,,Kd,674 µM
